Measured values gathered from unrelated publications.
A part holds a random share of what one study measured. Positions count from the first letter of the parent shown.

Sample 1 — target: CCNE2, cyclin fold, Cln2 fusion (human); method: yeast growth competition, sequencing; sample: yeast; notes: strong parent motif; baseline: not given; reading: higher = stronger binding
Parent: SCAPER docking peptide (human); SNARRSLNFGGST; partner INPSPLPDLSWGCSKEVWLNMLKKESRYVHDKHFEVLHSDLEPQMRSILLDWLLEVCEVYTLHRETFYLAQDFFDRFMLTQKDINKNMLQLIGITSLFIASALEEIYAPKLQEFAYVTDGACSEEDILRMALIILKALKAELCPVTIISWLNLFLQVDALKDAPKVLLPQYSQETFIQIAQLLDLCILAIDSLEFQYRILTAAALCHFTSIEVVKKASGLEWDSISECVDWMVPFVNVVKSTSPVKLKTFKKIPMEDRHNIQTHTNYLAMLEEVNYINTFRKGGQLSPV
| Variant | normalised enrichment score |
| --- | --- |
| SNARRSLNVGGST [F9V] | 0.162 |
| SNARRLLNFGGST [S6L] | 1.73 |
| SNARRSLNFGMST [G11M] | 1.19 |
| SNARRSLNFGGFT [S12F] | 1.59 |
| SNAMRSLNFGGST [R4M] | -0.256 |
| SNWRRSLNFGGST [A3W] | 0.299 |
| SNASRSLNFGGST [R4S] | -0.325 |
| SNARRSLNFGGGT [S12G] | 1.63 |
| SNARRSLNFLGST [G10L] | 0.88 |
| SNARRSLNFGFST [G11F] | 0.339 |
| SNARRSLNFIGST [G10I] | 0.457 |
| DNARRSLNFGGST [S1D] | 1.46 |
| SNARRSLNPGGST [F9P] | 0.819 |
| SNKRRSLNFGGST [A3K] | -0.505 |
| SNAERSLNFGGST [R4E] | -0.552 |
| SNARRSLNFGGSY [T13Y] | 0.997 |

Sample 2 — method: DHFR PCA, deep sequencing; sample: yeast; together with: (+)-ABA 0.11 µM; baseline: wild-type fitted maximum; reading: higher = stronger binding
Target: ABI1, truncated, D143A, DHFR fusion (Arabidopsis thaliana)
Notes: methotrexate growth selection, single substitutions
Parent: PYL1, truncated, DHFR fusion (Arabidopsis thaliana); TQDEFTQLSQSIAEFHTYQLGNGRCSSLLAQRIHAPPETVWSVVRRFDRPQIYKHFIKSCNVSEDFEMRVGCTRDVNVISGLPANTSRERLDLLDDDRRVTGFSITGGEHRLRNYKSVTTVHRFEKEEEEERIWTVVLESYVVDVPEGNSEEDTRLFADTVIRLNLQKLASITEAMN; partner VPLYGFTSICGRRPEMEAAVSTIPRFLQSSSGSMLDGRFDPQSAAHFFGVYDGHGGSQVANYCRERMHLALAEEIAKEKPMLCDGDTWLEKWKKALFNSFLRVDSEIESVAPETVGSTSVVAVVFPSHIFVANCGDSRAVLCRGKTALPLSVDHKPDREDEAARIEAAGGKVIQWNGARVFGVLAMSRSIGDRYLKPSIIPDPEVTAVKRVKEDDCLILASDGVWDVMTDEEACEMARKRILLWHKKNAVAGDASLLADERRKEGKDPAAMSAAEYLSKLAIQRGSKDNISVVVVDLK
| Variant | relative binding score |
| --- | --- |
| E67G | 5.8% |
| D92H | -0.765% |
| A30W | 23.7% |
| R123W | -1.87% |
| W134C | 47.4% |
| C60R | 8.82% |
| G108P | -5.2% |
| S59P | -2.29% |
| L28P | 0.353% |
| S87Q | 59.3% |
| E109Q | 8.88% |
| Q31L | -0.911% |
| S80L | 44.8% |
| H110M | 27.5% |
| Y115T | -3.27% |

Sample 3 — method: Sort-seq; item: YFP reporter; sample: E. coli; notes: PhoQ-PhoP variant library; together with: 10 µM Mg2+; baseline: high Mg2+ state; reading: higher = stronger signaling
Molecule: PhoQ, residues 284 288 289 292 302 303 ASVMEA
| target | fold induction |
| --- | --- |
| PhoP, residues 12 14 15 18 19 LHHYF (Escherichia coli, UniProt P23836) | 6.7 |
| PhoP, residues 12 14 15 18 19 VGHWL (Escherichia coli, UniProt P23836) | 1.95 |
| PhoP, residues 12 14 15 18 19 TPWTL (Escherichia coli, UniProt P23836) | 2.54 |
| PhoP, residues 12 14 15 18 19 NFFVT (Escherichia coli, UniProt P23836) | 12.2 |

Sample 4 — method: RNAcompete; form: RNA; sample: in vitro; tested at: 20 nM; notes: 7-mer, probes averaged, single round; baseline: mean of 7-mers; reading: higher = stronger binding
Target: PABPC1L2, full length, GST fusion (mouse, UniProt A0ABA7IW68)
Target sequence (chain): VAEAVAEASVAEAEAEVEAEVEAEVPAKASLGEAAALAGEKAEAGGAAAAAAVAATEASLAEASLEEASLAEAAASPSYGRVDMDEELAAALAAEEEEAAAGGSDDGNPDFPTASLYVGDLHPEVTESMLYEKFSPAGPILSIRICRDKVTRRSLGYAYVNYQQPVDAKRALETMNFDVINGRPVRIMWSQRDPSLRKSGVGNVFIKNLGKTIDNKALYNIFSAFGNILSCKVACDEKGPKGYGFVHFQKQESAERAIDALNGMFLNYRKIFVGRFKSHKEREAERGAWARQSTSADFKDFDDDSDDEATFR
| Oligonucleotide | 7-mer Z-score |
| --- | --- |
| GUCUACC | -0.295 |
| CGGGAAC | 0.0279 |
| GUAUGAU | -0.159 |
| CAGUGAC | -0.0826 |
| GACGUUU | -0.427 |
| CGCGUUA | -0.349 |
| ACGAGAU | 0.108 |
| GGUAUCC | -0.211 |
| CAACCAG | 0.108 |
| GGUCCAA | 0.0515 |
| CCUUGGC | -0.358 |
| UGGCUUC | -0.315 |
| GUAACCG | -0.0935 |
| CAGCUCU | -0.284 |
| AAUGCUG | 0.0805 |
| UCCCGCC | -0.47 |
| ACCUCGG | -0.231 |

For quick reference, copied from above (sample 4):
| Oligonucleotide | 7-mer Z-score |
| --- | --- |
| GUAUGAU | -0.159 |
| CGCGUUA | -0.349 |
| GUCUACC | -0.295 |
| AAUGCUG | 0.0805 |
| UGGCUUC | -0.315 |
